# Results pooled from the literature.
# Target: Glycogen synthase kinase-3 alpha (GSK3A, Homo sapiens, UniProt P49840)
Compound,test,conditions,how to read,measurement,value
COc1ccc(NC(=O)Nc2ccc3c(c2)C(=O)N(C(C)CO)CC(C)C(CN(C)Cc2ccc4c(c2)OCO4)O3)cc1 (centres unmarked),"kinase activity, KinaseProfiler","0.03 µM, species human",reference: control,remaining activity,98%
CN1CCN(Cc2ccc(-c3ccc(CO[C@H]4CCC[C@@H]4NC(=O)c4cc(-c5cnn(C)c5)cnc4N)cc3)cc2)CC1,"enzyme activity, inhibitor",0.1 µM,,inhibition,2%
CNC(=O)C1CCN(c2cc(C)c(F)cc2NC(=O)c2ccc(-c3cc(O)ccc3C)c(C)c2)CC1,"binding, competition with immobilised ligand",1 µM,,remaining binding,95%
C=CC(=O)N1CCc2ccc(-n3c(=O)ccc4cnc5ccc(-c6cnn(C)c6)cc5c43)cc21,KINOMEscan,1 µM,reference: DMSO control,remaining binding,100%
Cc1cnc2nc1Nc1cccc(c1)COC/C=C/COCc1cc(ccc1OCCN1CCOCC1)N2,binding,0.1 µM,,remaining binding,83%
COc1cc(Nc2nccc(-c3cnn4nc(OC)ccc34)n2)cc(C(F)(F)F)c1,"binding, competition with immobilised ligand",1 µM,,remaining binding,100%
CNC1C[S+]2CC[S+]3CC[S+](C1)[Ru-4]321([N]=C=S)[n]2c3ccc(OC)cc3c3c4c(c5cc(F)c[n+]1c5c32)C(=O)NC4=O (centres unmarked),KinomeScan,0.1 µM,reference: untreated,remaining binding,88%
CCN1CCN(Cc2ccc(C(=O)Nc3ccc(C)c(NCc4cnc5[nH]ccc5c4OC)c3)cc2C(F)(F)F)CC1,"binding, competition with immobilised ligand",1 µM,,remaining binding,100%
CN1CC[C@@H](COc2cnc(C#N)cc2-c2ccn3nc(NC(=O)C4CC4)cc3c2)C1,"enzyme activity, inhibitor",1 µM,,inhibition,12%
CCn1cc(C(=O)O)c(=O)c2c(N)c(F)c(NC3CCCCC3)cc21,kinase activity,"0.1 µM, added: ATP at Km",,inhibition,93%
Nc1ncc(-c2cc(-c3cnn(CC(F)(F)F)c3)ncc2F)nc1C(=O)NC1CNCC(F)C1 (centres unmarked),enzyme activity,1 µM,reference: DMSO control,remaining activity,80.1%
O=C(Cc1ccc(OCc2ccccc2)cc1)NC1(C(=O)O)CCN(C(=O)c2ccc(-c3cccc(Cl)c3)cc2)CC1,"enzyme activity, inhibitor",10 µM,,activity vs control,95%
NC(=O)C[C@H]1CCc2sc3ncnc(O[C@H]4CC[C@H](N5CCOCC5)CC4)c3c21,"enzyme activity, inhibitor",10 µM,,inhibition,20%
Cc1cccc(O[C@H]2CCC[C@@H](C(C)CNCc3ccncc3)C2)c1 (relative stereo),"enzyme activity, inhibitor",1 µM,,inhibition,-2%
C=CC(=O)Nc1cccc(-c2cnc3[nH]cc(C(=O)NC(C)(C)C)c3n2)c1,"enzyme activity, inhibitor",0.1 µM,,inhibition,78%
COc1c(Cl)cccc1Nc1c(-c2ccncc2C#C[C@@]2(C)CCCN2C(=O)/C=C/CN(C)C)[nH]c2c1C(=O)NCC2,"cell-free assay, competition with immobilised ligand",3 µM,,remaining binding,100%
C=CC(=O)N1Cc2nc(-c3cc(-c4cc(Cl)cnc4Cl)c(F)cc3F)n(-c3ccncn3)c2C1,"cell-free assay, inhibitor",1 µM,,inhibition,5.5%

# Repeated from above:
Compound,test,conditions,how to read,measurement,value
COc1cc(Nc2nccc(-c3cnn4nc(OC)ccc34)n2)cc(C(F)(F)F)c1,"binding, competition with immobilised ligand",1 µM,,remaining binding,100%
CNC1C[S+]2CC[S+]3CC[S+](C1)[Ru-4]321([N]=C=S)[n]2c3ccc(OC)cc3c3c4c(c5cc(F)c[n+]1c5c32)C(=O)NC4=O (centres unmarked),KinomeScan,0.1 µM,reference: untreated,remaining binding,88%
CCN1CCN(Cc2ccc(C(=O)Nc3ccc(C)c(NCc4cnc5[nH]ccc5c4OC)c3)cc2C(F)(F)F)CC1,"binding, competition with immobilised ligand",1 µM,,remaining binding,100%
